# Results gathered from unrelated publications.
# SLCO1B3: Solute carrier organic anion transporter family member 1B3 (SLCO1B3, Homo sapiens, UniProt Q9NPD5)
# Chain of UniProt Q9NPD5 (whole entry, looked up): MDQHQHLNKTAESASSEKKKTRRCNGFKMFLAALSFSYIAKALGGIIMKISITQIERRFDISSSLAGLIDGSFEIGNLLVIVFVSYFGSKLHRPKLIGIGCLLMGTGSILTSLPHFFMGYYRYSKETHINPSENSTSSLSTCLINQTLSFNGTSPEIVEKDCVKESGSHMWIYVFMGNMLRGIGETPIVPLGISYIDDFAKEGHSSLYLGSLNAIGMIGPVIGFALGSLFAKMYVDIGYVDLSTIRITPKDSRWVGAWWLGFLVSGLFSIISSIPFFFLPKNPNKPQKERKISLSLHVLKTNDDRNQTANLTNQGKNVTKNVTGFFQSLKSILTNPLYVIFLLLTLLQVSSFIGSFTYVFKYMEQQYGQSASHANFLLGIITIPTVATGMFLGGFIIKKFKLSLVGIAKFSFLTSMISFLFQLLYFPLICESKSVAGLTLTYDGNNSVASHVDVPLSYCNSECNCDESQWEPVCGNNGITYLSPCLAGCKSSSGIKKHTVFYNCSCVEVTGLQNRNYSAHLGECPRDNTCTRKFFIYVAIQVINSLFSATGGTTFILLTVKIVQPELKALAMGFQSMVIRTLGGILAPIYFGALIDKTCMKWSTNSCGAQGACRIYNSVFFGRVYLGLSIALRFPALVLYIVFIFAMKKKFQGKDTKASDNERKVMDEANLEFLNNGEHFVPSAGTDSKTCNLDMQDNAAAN
# Tumor necrosis factor receptor superfamily member 9/Nectin-4: Tumor necrosis factor receptor superfamily member 9/Nectin-4 (Homo sapiens, UniProt Q07011+Q96NY8)
# Chain of UniProt Q96NY8 (whole entry, looked up): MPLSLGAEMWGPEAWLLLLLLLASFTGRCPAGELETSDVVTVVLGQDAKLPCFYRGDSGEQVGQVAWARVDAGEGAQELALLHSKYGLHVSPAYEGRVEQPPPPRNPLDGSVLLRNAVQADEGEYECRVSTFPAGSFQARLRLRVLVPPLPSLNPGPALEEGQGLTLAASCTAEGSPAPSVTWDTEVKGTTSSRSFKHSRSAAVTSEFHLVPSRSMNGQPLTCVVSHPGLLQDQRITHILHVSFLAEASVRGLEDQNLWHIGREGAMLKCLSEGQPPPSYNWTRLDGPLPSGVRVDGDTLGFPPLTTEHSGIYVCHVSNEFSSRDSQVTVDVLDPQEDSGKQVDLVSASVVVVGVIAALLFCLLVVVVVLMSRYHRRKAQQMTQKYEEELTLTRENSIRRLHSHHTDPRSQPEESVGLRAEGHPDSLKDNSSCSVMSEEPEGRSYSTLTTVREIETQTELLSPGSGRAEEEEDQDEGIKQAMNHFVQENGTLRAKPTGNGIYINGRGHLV
# Chain of UniProt Q07011 (whole entry, looked up): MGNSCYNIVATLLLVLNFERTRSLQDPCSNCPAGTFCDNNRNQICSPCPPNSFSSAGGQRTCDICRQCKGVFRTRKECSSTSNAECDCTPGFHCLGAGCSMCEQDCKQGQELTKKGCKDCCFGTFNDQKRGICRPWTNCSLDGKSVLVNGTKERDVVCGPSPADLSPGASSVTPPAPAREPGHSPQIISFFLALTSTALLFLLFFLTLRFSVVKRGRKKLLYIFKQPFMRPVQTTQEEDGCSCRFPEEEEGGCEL
# ABCG2: Broad substrate specificity ATP-binding cassette transporter ABCG2 (ABCG2, Homo sapiens, UniProt Q9UNQ0)
# Chain of UniProt Q9UNQ0 (whole entry, looked up): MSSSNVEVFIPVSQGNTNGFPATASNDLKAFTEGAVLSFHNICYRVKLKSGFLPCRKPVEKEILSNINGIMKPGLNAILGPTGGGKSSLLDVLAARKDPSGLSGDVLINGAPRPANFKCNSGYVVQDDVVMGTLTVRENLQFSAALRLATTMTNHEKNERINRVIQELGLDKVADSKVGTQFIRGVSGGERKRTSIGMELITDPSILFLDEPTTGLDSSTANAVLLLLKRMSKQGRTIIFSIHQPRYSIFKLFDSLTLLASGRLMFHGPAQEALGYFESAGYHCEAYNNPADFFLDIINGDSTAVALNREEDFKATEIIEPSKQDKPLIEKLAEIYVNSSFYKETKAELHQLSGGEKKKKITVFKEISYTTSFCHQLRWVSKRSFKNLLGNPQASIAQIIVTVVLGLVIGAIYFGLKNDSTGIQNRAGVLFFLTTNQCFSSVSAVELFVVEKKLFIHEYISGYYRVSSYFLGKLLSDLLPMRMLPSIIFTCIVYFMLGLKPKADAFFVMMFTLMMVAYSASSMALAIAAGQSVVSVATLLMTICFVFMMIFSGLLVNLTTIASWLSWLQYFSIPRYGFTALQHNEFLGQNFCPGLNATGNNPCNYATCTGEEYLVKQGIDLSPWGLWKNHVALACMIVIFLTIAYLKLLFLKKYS
# Chain of UniProt Q13936 (whole entry, looked up): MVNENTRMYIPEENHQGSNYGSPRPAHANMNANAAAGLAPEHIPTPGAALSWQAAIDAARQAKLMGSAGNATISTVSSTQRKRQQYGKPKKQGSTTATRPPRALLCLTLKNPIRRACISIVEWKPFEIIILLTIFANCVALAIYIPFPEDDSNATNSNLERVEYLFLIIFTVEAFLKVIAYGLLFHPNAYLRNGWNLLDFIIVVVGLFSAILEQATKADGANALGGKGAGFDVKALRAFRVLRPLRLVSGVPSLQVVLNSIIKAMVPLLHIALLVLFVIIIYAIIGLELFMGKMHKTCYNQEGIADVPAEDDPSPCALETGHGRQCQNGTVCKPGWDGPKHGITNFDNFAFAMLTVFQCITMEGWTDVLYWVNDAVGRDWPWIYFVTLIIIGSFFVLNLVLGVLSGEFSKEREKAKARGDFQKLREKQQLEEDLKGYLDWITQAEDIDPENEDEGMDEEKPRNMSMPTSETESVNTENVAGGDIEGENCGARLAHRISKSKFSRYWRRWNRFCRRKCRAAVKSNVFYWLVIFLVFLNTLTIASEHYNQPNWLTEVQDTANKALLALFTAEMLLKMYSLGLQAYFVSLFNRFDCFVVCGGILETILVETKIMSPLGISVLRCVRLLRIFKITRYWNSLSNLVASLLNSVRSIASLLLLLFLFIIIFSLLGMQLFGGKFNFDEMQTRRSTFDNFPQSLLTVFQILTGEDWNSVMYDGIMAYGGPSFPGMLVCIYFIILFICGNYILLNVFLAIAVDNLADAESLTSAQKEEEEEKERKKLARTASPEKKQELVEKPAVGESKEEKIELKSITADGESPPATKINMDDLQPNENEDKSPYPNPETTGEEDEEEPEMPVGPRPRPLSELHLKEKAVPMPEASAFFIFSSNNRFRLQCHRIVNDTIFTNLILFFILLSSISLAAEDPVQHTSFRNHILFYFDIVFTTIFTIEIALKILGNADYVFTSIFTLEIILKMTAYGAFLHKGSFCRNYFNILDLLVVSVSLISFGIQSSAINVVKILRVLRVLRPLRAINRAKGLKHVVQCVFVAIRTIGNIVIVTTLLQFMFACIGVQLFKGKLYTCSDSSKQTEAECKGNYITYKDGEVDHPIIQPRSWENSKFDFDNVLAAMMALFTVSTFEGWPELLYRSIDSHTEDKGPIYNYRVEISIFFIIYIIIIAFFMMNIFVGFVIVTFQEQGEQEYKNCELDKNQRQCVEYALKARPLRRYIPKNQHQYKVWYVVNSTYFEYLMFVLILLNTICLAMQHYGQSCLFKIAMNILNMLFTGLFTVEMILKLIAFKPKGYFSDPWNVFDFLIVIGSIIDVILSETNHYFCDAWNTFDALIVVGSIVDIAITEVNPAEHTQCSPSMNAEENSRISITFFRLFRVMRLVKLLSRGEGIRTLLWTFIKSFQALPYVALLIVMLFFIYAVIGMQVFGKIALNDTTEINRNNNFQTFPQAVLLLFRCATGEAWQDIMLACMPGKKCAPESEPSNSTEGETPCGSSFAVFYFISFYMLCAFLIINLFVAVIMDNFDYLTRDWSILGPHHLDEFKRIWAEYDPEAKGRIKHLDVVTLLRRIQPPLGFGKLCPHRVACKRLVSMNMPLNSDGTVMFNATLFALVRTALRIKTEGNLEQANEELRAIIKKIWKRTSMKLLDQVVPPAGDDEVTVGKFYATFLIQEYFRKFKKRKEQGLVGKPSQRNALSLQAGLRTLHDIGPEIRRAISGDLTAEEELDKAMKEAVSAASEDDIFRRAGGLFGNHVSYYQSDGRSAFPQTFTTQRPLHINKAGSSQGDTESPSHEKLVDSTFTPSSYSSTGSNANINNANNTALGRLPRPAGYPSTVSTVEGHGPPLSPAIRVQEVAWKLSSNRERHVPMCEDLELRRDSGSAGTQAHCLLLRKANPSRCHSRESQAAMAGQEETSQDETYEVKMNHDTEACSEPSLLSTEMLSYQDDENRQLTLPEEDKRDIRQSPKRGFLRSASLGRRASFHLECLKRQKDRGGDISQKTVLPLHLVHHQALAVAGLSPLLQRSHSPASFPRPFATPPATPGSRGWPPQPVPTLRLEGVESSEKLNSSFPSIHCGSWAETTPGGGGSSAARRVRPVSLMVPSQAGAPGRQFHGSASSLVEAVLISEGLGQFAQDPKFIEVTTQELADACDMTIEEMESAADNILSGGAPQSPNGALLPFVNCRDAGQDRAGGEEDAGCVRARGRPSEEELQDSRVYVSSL
SMILES,tested on,test,system,conditions,scale,quantity,result
O=C(NCCN1CCCC1)c1cc(-c2ccc(CN3CCOCC3)cc2)nc2ccc(F)cc12,"Voltage-dependent L-type calcium channel subunit alpha-1C (CACNA1C, Homo sapiens, UniProt Q13936)","calcium influx, inhibitor, fluorescence calcium",,100 µM (highest tested),,inhibition,no inhibition
O=C(O)C(F)(F)C(F)(F)C(F)(F)C(F)(F)C(F)(F)C(F)(F)C(F)(F)F,SLCO1B3,substrate,CHO stably expressing,10 µM,,linear uptake duration,1 min
COc1cccc(CNC(=O)C2CCN(Cc3cc4ccccc4n3Cc3ccccc3)CC2)c1OC,Vero-E6,CellTiter-Glo ATP,,"concentration not given, 72 h, second round 5-point","baseline: DMSO 0%, hyamine -100%, more negative, more toxic",cytotoxicity efficacy,-10.3%
COc1cc2nc(N3CCN(C(=O)c4ccco4)CC3)nc(N)c2cc1OC,SLCO1B3,"transport, inhibitor",transiently transfected cells,"100 µM, 10 (unit not given), together with: CCK-8",,inhibition,82.8%
CC1(C)C(/C=C(\Cl)C(F)(F)F)C1C(=O)OC(C#N)c1cccc(Oc2ccccc2)c1 (centres unmarked),human CYP2C8,IVIVE from expressed enzymes,"human, liver, in vivo scaled",age-specific,,enzyme contribution to CLint,0.09%
CCCC[C@@H]1NC(=O)[C@H](Cc2ccc(O)cc2)NC(=O)[C@@H]2CCCN2C(=O)[C@H](CC(N)=O)NC(=O)[C@H](C)NC(=O)[C@H](Cc2ccccc2)NC(=O)[C@@H]2CSCCC(=O)N3CN(CN(C3)C(=O)CCSC[C@H](NC(C)=O)C(=O)N[C@@H](CC(C)(C)C)C(=O)N3CCC[C@H]3C(=O)N[C@@H](CCC(=O)O)C(=O)N[C@H](CCCCNC(=O)CCc3cn(CCOCCOCCOCCN(CCOCCOCCOCCC(=O)N[C@H]4CSCCC(=O)N5CN6CN(C5)C(=O)CCSC[C@H](NC(=O)[C@@H](CC(=O)O)NC(=O)[C@H](Cc5cccc7ccccc57)NC(=O)[C@@H]5CCCN5C4=O)C(=O)N[C@@H](CCSC)C(=O)N[C@@H](CCCCNC(=N)N)C(=O)N[C@@H](CC(=O)O)C(=O)N[C@@H](Cc4c[nH]c5ccccc45)C(=O)N[C@@H](CO)C(=O)N[C@@H]([C@@H](C)O)C(=O)N4CCC[C@H]4C(=O)N4C[C@H](O)C[C@H]4C(=O)N[C@@H](Cc4c[nH]c5ccccc45)C(=O)N[C@H](C(N)=O)CSCCC6=O)CCOCCOCCOCCn4cc(CCC(=O)NCCCC[C@H]5NC(=O)[C@H](CCC(=O)O)NC(=O)[C@@H]6CCCN6C(=O)[C@H](CC(C)(C)C)NC(=O)[C@@H](NC(C)=O)CSCCC(=O)N6CN7CN(C6)C(=O)CCSC[C@H](NC(=O)[C@H](Cc6ccc(O)cc6)NC(=O)[C@@H]6CCCN6C5=O)C(=O)N[C@@H](Cc5ccccc5)C(=O)N[C@@H](C)C(=O)N[C@@H](CC(N)=O)C(=O)N5CCC[C@H]5C(=O)N[C@@H](Cc5ccc(O)cc5)C(=O)N[C@@H](CCCC)C(=O)N[C@H](C(N)=O)CSCCC7=O)nn4)nn3)C(=O)N3CCC[C@H]3C(=O)N[C@@H](Cc3ccc(O)cc3)C(=O)N2)C(=O)CCSC[C@@H](C(N)=O)NC1=O,Tumor necrosis factor receptor superfamily member 9/Nectin-4,"reporter gene, agonist, luciferase reporter",CD137 Jurkat reporter with HT-1376,"6 h, geometric mean",baseline: wells without compound,Emax,25 fold
COc1cc2c(c(OC)c1OC)-c1ccc(OC)c(=O)cc1[C@@H](NC(C)=O)CC2,ABCG2,"transport, inhibitor",,"100 µM, 5 (unit not given), pH 7, together with: CCK-8",,inhibition,23.8%
CC1CCCCN1CCCNC(=O)c1cc(Sc2cccc(Cl)c2)nc2ccccc12 (centres unmarked),Vero-E6,CellTiter-Glo ATP,,"concentration not given, 72 h, second round 5-point","baseline: DMSO 0%, hyamine -100%, more negative, more toxic",cytotoxicity efficacy,-11.6%
CC1(C)C(C=C(Cl)Cl)C1C(=O)OC(C#N)c1ccc(F)c(Oc2ccccc2)c1 (centres unmarked),CES2 human cytosolic,,,"0.1 µM, age 5 years",,enzyme contribution,0.31%
CCCC[C@@H]1NC(=O)[C@H](Cc2ccc(O)cc2)NC(=O)[C@@H]2CCCN2C(=O)[C@H](CC(=O)O)NC(=O)[C@H](C)NC(=O)[C@H](Cc2ccccc2)NC(=O)[C@@H]2CSCCC(=O)N3CN(CN(C3)C(=O)CCSC[C@@H](C(=O)N[C@@H](C)C(N)=O)NC1=O)C(=O)CCSC[C@H](NC(=O)[C@H](C)NC(C)=O)C(=O)N[C@@H]([C@@H](C)CC)C(=O)N[C@@H](CCC(=O)O)C(=O)N[C@@H](CCC(=O)O)C(=O)N[C@H](CCCCNC(=O)CCc1cn(CCOCCOCCOCCN(CCOCCOCCOCCC(=O)N[C@H]3CSCCC(=O)N4CN5CN(C4)C(=O)CCSC[C@H](NC(=O)[C@@H](CC(=O)O)NC(=O)[C@H](Cc4cccc6ccccc46)NC(=O)[C@@H]4CCCN4C3=O)C(=O)N[C@@H](CCSC)C(=O)N[C@@H](CCCCNC(=N)N)C(=O)N[C@@H](CC(=O)O)C(=O)N[C@@H](Cc3c[nH]c4ccccc34)C(=O)N[C@@H](CO)C(=O)N[C@@H]([C@@H](C)O)C(=O)N3CCC[C@H]3C(=O)N3C[C@H](O)C[C@H]3C(=O)N[C@@H](Cc3c[nH]c4ccccc34)C(=O)N[C@H](C(N)=O)CSCCC5=O)CCOCCOCCOCCn3cc(CCC(=O)NCCCC[C@H]4NC(=O)[C@H](CCC(=O)O)NC(=O)[C@H](CCC(=O)O)NC(=O)[C@H]([C@@H](C)CC)NC(=O)[C@@H](NC(=O)[C@H](C)NC(C)=O)CSCCC(=O)N5CN6CN(C5)C(=O)CCSC[C@H](NC(=O)[C@H](Cc5ccc(O)cc5)NC(=O)[C@H](CCC(N)=O)NC4=O)C(=O)N[C@@H](Cc4ccccc4)C(=O)N[C@@H](C)C(=O)N[C@@H](CC(=O)O)C(=O)N4CCC[C@H]4C(=O)N[C@@H](Cc4ccc(O)cc4)C(=O)N[C@@H](CCCC)C(=O)N[C@H](C(=O)N[C@@H](C)C(N)=O)CSCCC6=O)nn3)nn1)C(=O)N[C@@H](CCC(N)=O)C(=O)N[C@@H](Cc1ccc(O)cc1)C(=O)N2,Tumor necrosis factor receptor superfamily member 9/Nectin-4,"reporter gene, agonist, luciferase reporter",CD137 Jurkat reporter with HT-1376,"6 h, geometric mean",baseline: wells without compound,Emax,46 fold
CCCCc1nc(Cl)c(CO)n1Cc1ccc(-c2ccccc2-c2nn[nH]n2)cc1,ABCG2,"transport, inhibitor",,"100 µM, 5 (unit not given), pH 7, together with: CCK-8",,inhibition,88.9%

# Excerpt of the above:
SMILES,tested on,test,system,conditions,scale,quantity,result
CCCCc1nc(Cl)c(CO)n1Cc1ccc(-c2ccccc2-c2nn[nH]n2)cc1,ABCG2,"transport, inhibitor",,"100 µM, 5 (unit not given), pH 7, together with: CCK-8",,inhibition,88.9%
